Assay results pooled from the literature.
Protocols differ between the studies behind these lines. ± marks the error that the study gave.
Cell line: HCT-116

Compound | assay | conditions | scale | endpoint | value
CC[C@H](C)[C@H](NC(=O)[C@H](CO)NC(=O)[C@H](CCCNC(=N)N)NC(=O)[C@@H]1CCCN1C(=O)[C@H](Cc1c[nH]c2ccccc12)NC(=O)[C@H](CCCNC(=N)N)NC(=O)[C@H](CCCNC(=N)N)NC(C)=O)C(=O)N[C@@H](CC(C)C)C(=O)N[C@@H](CC(=O)O)C(=O)N[C@@H](CCC(=O)O)C(=O)N[C@@H](Cc1c[nH]cn1)C(=O)N[C@H](C(=O)N[C@@H](CCCNC(=N)N)C(=O)N[C@@H](CCCNC(=N)N)C(=O)N[C@H](C(=O)N[C@@H](Cc1c[nH]c2ccccc12)C(=O)N[C@@H](CCCNC(=N)N)C(=O)NCCCCCC(=O)N[C@@H](C)C(=O)N[C@@H](CC(C)C)C(=O)N[C@@H](C)C(=O)N1CCC[C@H]1C(=O)N[C@@H](Cc1ccc(O)cc1)C(=O)N[C@H](C(=O)N1CCC[C@H]1C(=O)N[C@@H](Cc1ccc(O)cc1)C(=O)NCC(=O)N[C@@H](CCCNC(=N)N)C(=O)N[C@@H](CCCCN)C(=O)N[C@@H](CCCCN)C(=O)N[C@@H](CCCNC(=N)N)C(=O)N[C@@H](CCCNC(=N)N)C(=O)N[C@@H](CCC(N)=O)C(=O)N[C@@H](CCCNC(=N)N)C(=O)N[C@@H](CCCNC(=N)N)C(=O)N[C@@H](CCCNC(=N)N)C(N)=O)[C@@H](C)CC)C(C)C)C(C)C | cell growth or viability, CCK-8 |  |  | IC50 | 9.95 µM
COc1c(C)cc2c(c1OC)OCO2 | cell growth or viability, MTT | 72 h |  | GI50 | > 250 µM
CC(C)CCC[C@@H](C)[C@H]1CC[C@H]2[C@@H]3CC=C4C[C@@H](OC(=O)NCCCCCC(=O)N[C@@H](CCCCNC(=O)CCCc5ccc(N(CCCl)CCCl)cc5)C(=O)NCCCCCC(=O)N[C@H](CCCNC(=N)N)C(=O)N[C@@H](CCCNC(=N)N)C(=O)N[C@@H](Cc5c(F)c(F)c(F)c(F)c5F)C(=O)N[C@@H](CCCNC(=N)N)C(=O)N[C@@H]5CSCc6ccccc6CSC[C@@H](C(=O)N[C@H](CCCNC(=N)N)C(=O)N[C@@H](CC6CCCCC6)C(=O)N[C@@H](CCCNC(=N)N)C(=O)N6Cc7ccccc7C6C(N)=O)NC(=O)[C@H](Cc6cccc7ccccc67)NC(=O)[C@H](Cc6ccc(O)cc6)NC5=O)CC[C@]4(C)[C@H]3CC[C@]12C (stereo partly shown) |  |  |  | EC50 | 7.9 ± 1.3 µM
C=C(C)C[C@H](OC)[C@H](O)C(=O)NC[C@@H]1CCC[C@@H](C[C@H](O)[C@@H](C)[C@H]2Cc3c(C)c(O)cc(O)c3C(=O)O2)O1 | cell growth or viability |  |  | IC50 | 0.16 µM
CC(C)C[C@H](NC(=O)[C@H](C)NC(=O)[C@H](CCCCN)NC(=O)[C@H](C)NC(=O)[C@H](C)NC(=O)[C@@H]1CSCc2ccc(cc2)CSC[C@H](NC(=O)[C@H](CCCCN)NC(=O)[C@H](Cc2ccccc2)NC(=O)CN)C(=O)N[C@@H](CC(C)C)C(=O)N[C@@H](CC(C)C)C(=O)N[C@@H](CCCCN)C(=O)N1)C(=O)N[C@H](C(=O)N[C@@H](CCCCN)C(=O)N[C@H](C(=O)N[C@H](C(=O)N[C@@H](CC(C)C)C(=O)N[C@@H](Cc1ccccc1)C(N)=O)C(C)C)[C@@H](C)O)C(C)C | cell growth or viability, CCK-8 |  |  | IC50 | 11.8 µM
CCCCCCCCC[P+](c1ccccc1)(c1ccccc1)c1ccccc1 | cell growth or viability | 72 h |  | GI50 | 0.092 µM
CCCCn1cc(C(=O)O)c(=O)c2cc(F)c(Nc3cccc(Cl)c3)c(N)c21 | cell proliferation, SRB |  |  | IC50 | 0.84 µM
Cc1cc(O)cc(-c2nc(Nc3cc(C(F)(F)F)cc(C(F)(F)F)c3)ncc2-c2ccnc(Cl)c2)c1 |  | 10 µM, 72 h | reference: untreated cells | viability decrease | > 50%
COC1CC(=O)N(C)C=CCCCC(=O)N(C)C(C(C)C)C(=O)N(C)C(CC(C)C)C(=O)OC(C(C)C)CC(C)C1 (stereo not shown) | RNA sequencing, measured: autophagy | 20 µM, 12 h | direction not given | pathway activation z-score | 2
CCCCCCCCCCCCCCCC[P+](c1ccccc1)(c1ccccc1)c1ccccc1 | cell growth or viability, MTT | 72 h |  | GI50 | 0.451 µM
CC(C)C[C@H](NC(=O)[C@H](CC(C)C)NC(=O)[C@H](CC(=O)O)NC(=O)[C@H](CCCCN)NC(=O)[C@H](Cc1ccccc1)NC(=O)CN)C(=O)N[C@@H](CCCCN)C(=O)N[C@H]1CSCc2ccccc2CSC[C@@H](C(=O)N[C@@H](CC(C)C)C(=O)N[C@H](C(=O)N[C@@H](CCCCN)C(=O)N[C@H](C(=O)N[C@H](C(=O)N[C@@H](CC(C)C)C(=O)N[C@@H](Cc2ccccc2)C(N)=O)C(C)C)[C@@H](C)O)C(C)C)NC(=O)[C@H](CCCCN)NC(=O)[C@H](C)NC(=O)[C@H](C)NC1=O | cell growth or viability, CCK-8 |  |  | IC50 | 4.78 µM
C[P+](c1ccccc1)(c1ccccc1)c1ccccc1 | cell growth or viability, MTT | 72 h |  | GI50 | 2.32 µM
COc1ccc(NC(=O)c2ccc(NC(=O)CN3C(=O)S/C(=C\c4ccccc4OC)C3=O)cc2)cc1 | MTT |  | reference: IC50 Vero over IC50 HCT-116 | selectivity index | 4.26

A few entries again:
Compound | assay | conditions | scale | endpoint | value
C[P+](c1ccccc1)(c1ccccc1)c1ccccc1 | cell growth or viability, MTT | 72 h |  | GI50 | 2.32 µM
CC(C)C[C@H](NC(=O)[C@H](CC(C)C)NC(=O)[C@H](CC(=O)O)NC(=O)[C@H](CCCCN)NC(=O)[C@H](Cc1ccccc1)NC(=O)CN)C(=O)N[C@@H](CCCCN)C(=O)N[C@H]1CSCc2ccccc2CSC[C@@H](C(=O)N[C@@H](CC(C)C)C(=O)N[C@H](C(=O)N[C@@H](CCCCN)C(=O)N[C@H](C(=O)N[C@H](C(=O)N[C@@H](CC(C)C)C(=O)N[C@@H](Cc2ccccc2)C(N)=O)C(C)C)[C@@H](C)O)C(C)C)NC(=O)[C@H](CCCCN)NC(=O)[C@H](C)NC(=O)[C@H](C)NC1=O | cell growth or viability, CCK-8 |  |  | IC50 | 4.78 µM
